{"data": "Measurements gathered from unrelated publications", "note": "Compare with care: the assays were run in different laboratories."}
{"SMILES": "COc1cccc(OC)c1-c1cc(C(=O)NC2(C(=O)O)C3CC4CC(C3)CC2C4)nn1-c1ccc(C(=O)NCCNC(=O)[C@H](CCCCNC(=O)[C@H](CC(C)C)NC(=O)C2OC2C(=O)O)NC(=O)CN2CCN(CC(=O)[O-])CCN(CC(=O)[O-])CCN(CC(=O)[O-])CC2)cc1C(C)C.[177Lu+3] (mixture of isomers)", "test system": "mouse HT-29 xenograft", "setting": "4 h, biodistribution", "scale": "relative to: tumour over large intestine", "measurement": "tumour-to-large intestine ratio", "result": 9.56}
{"SMILES": "CC[C@H](C)[C@@H]1NC(=O)[C@H](Cc2ccc(O)cc2)NC(=O)CCCSC[C@@H](C(=O)N(CC(=O)N[C@@H](CC(C)C)C(=O)NCC(N)=O)Cc2ccc(F)cc2)NC(=O)[C@H](CC(N)=O)NC(=O)[C@H](CCC(N)=O)NC1=O", "test system": "healthy human females, plasma", "setting": "intranasal, 200 µg single dose", "measurement": "Cmax", "result": "0.095 ng/mL"}
{"SMILES": "O=C(Nc1cnccc1-c1ccc([18F])nc1)c1ccnc(NC(=O)C2CC2)c1", "test system": "FVB/NJ mice, both sexes, brain", "setting": "intravenous, 40 min, median, P-gp inhibitor pretreatment, with: tariquidar 15 mg/kg iv", "measurement": "SUV", "result": 0.164}
{"SMILES": "COc1cccc(OC)c1-c1cc(C(=O)NC2(C(=O)O)C3CC4CC(C3)CC2C4)nn1-c1ccc(C(=O)N(C)CCCN(C)C(=O)[C@H](CCCCNC(=O)[C@H](CC(C)C)NC(=O)C2OC2C(=O)O)NC(=O)CN2CCN(CC(=O)[O-])CCN(CC(=O)[O-])CCN(CC(=O)[O-])CC2)cc1C(C)C.[177Lu+3] (mixture of isomers)", "test system": "mouse, HT-29 xenograft", "setting": "4 h post injection, biodistribution", "scale": "relative to: tumour over lung uptake", "measurement": "tumour-to-lung ratio", "result": 4.4}
{"SMILES": "CC[C@H](C)[C@H](NC(=O)[C@H](CC(=O)O)NC(C)=O)C(=O)N[C@@H](Cc1ccccc1)C(=O)N[C@@H](Cc1ccccc1)C(=O)N[C@@H](CCCNC(=N)N)C(=O)N[C@@H](Cc1ccc(O)cc1)C(=O)N[C@@H](CC(N)=O)C(=O)NCC(=O)N[C@@H](CCCCN)C(=O)N[C@H](C(=O)N[C@@H](Cc1c[nH]c2ccccc12)C(=O)N[C@@H](Cc1c[nH]c2ccccc12)C(=O)N[C@@H](CCCNC(=N)N)C(=O)O)C(C)C", "test": "circular dichroism", "test system": "free peptide in solution", "setting": "concentration not given, 25 °C, no insulin present", "measurement": "α-helix content", "result": "6.45%"}
{"SMILES": "COc1ccnc(C(=O)N[C@H]2COC(=O)[C@H](Cc3ccccc3)[C@@H](OC(=O)C(C)C)[C@H](C)OC2=O)c1O", "test system": "bovine fat", "setting": "-18 °C", "measurement": "storage stability", "result": "9 months"}
{"SMILES": "OC[C@H]1O[C@@H](n2cnc3c(SCc4ccccc4)nc(Cl)nc32)C[C@@H]1O", "test": "UV absorbance", "test system": "culture medium", "setting": "stock diluted to 0.40 mM", "measurement": "solubility", "result": "16.8 µM"}
{"SMILES": "C=C(NC(=O)c1csc(-c2nc3c(cc2O)-c2nc(cs2)C(=O)NC(C(C)O)C(=O)NC(=C(C)OC)c2nc(cs2)C(=O)NC2c4nc(cs4)C(=O)NC(COC(=O)c4c5c6c(cccc6n4O)COC(=O)C(OC4CC(C)(O)C(N(C)C)C(C)O4)C2OC5)c2nc-3cs2)n1)C(N)=O (stereo not drawn)", "test system": "ICR mice, Streptococcus pneumoniae ATCC 49169 infected, immunocompromised, blood", "setting": "intravenous, 16 mg/kg/day twice daily", "measurement": "Cmax", "result": "663 ng/mL"}
{"SMILES": "O=c1c(-c2ccc(Cl)c(CN3CCOCC3)c2)coc2cc(O)ccc12", "test system": "male Sprague-Dawley rat, plasma", "setting": "intravenous, 2 mg/kg", "measurement": "AUC(0-inf)", "result": "592 ng·h/mL"}
{"SMILES": "O=C(N[C@@H](Cc1ccc(OCCCCC2CCNCC2)cc1)C(=O)O)c1nc2ccccc2o1.O=C(O)C(F)(F)F", "test": "rapid equilibrium dialysis", "test system": "human plasma", "setting": "time not given", "measurement": "mass balance recovery", "result": "94.5%"}
{"SMILES": "CC(=O)N([O-])CCCCCNC(=O)CCC(=O)N([O-])CCCCCNC(=O)CCC(=O)N([O-])CCCCCN.[89Zr+4]", "test system": "mouse, lung", "setting": "4 h", "measurement": "tracer uptake", "result": "0.17 %ID/g"}
{"SMILES": "Cc1noc(C)c1Cn1cc(N2C(=O)CN(Cc3cccc(OS(=O)(=O)O)c3)C2=O)cn1", "test system": "rat Sprague-Dawley male, plasma", "setting": "intravenous, 1 mg/kg of parent drug, 0.5 h", "measurement": "plasma concentration", "result": "2230 ng/mL"}
{"note": "Repeated from above:"}
{"SMILES": "COc1cccc(OC)c1-c1cc(C(=O)NC2(C(=O)O)C3CC4CC(C3)CC2C4)nn1-c1ccc(C(=O)N(C)CCCN(C)C(=O)[C@H](CCCCNC(=O)[C@H](CC(C)C)NC(=O)C2OC2C(=O)O)NC(=O)CN2CCN(CC(=O)[O-])CCN(CC(=O)[O-])CCN(CC(=O)[O-])CC2)cc1C(C)C.[177Lu+3] (mixture of isomers)", "test system": "mouse, HT-29 xenograft", "setting": "4 h post injection, biodistribution", "scale": "relative to: tumour over lung uptake", "measurement": "tumour-to-lung ratio", "result": 4.4}
